Assay results from different studies.
Protocols differ between the studies behind these lines. Values joined by “and” are separate records of one study, mostly repeats; a detail may differ. ± gives the spread as reported.

SMILES | target or system | assay | system | setting | scale | quantity | result
Nc1nc(-c2ccccc2)nc2[nH]nc(Nc3ccccc3C(F)(F)F)c12 | rhinovirus B42 | viral cytopathic effect | HeLa |  |  | IC50 | 1700 nM
COc1cc(O)ccc1CCC(c1ccc(O)cc1)c1cc2c(c(C)c1O)OC(c1ccc(O)cc1)CC2 (mixture of isomers) |  |  | human blood | 3 µM, with: A23187 |  | 5-HEPE level | 63 ± 28 pg/mL
CNS(=O)(=O)Nc1nccc(Cc2c(C)c3ccc(Oc4ncccc4F)cc3oc2=O)c1F | HEC-265 | cell viability, CellTiter-Glo |  | 7 days |  | IC50 | > 1000 nM
CN1CCCNC(=O)c2cccc(c2)C(=O)NCCCN(C)CCCNc2cccc3c2C(=O)c2cccc(c2C3=O)NCCC1 | SAS | RNA-Seq, measured: FAM86C1 mRNA |  | 1 µM, 6 h | relative to: untreated cells | log2 fold change | 1.84
N#Cc1ccc(Nc2n[nH]c3nc(-c4ccccc4)nc(N)c23)cc1 | coxsackievirus B3 | viral cytopathic effect | HeLa |  |  | IC50 | 5200 nM
Cc1cccc2c1N(C(=O)n1ccnn1)CC2 | Arabidopsis thaliana |  | wild type, seeds | 1 µM, high ambient temperature |  | germination rate | 3.2% and 80% and 0% and 5.7% and 68.2%
c1ccc(-c2n[nH]cc2-c2ccnc3ccccc23)nc1 | orf19.3456 Candida albicans | kinase binding, MIB/MS competition | Candida albicans lysate | 1 µM | relative to: DMSO | log2 fold change | -0.02
C=C(NC(=O)c1csc(-c2nc3c(cc2O)-c2nc(cs2)C(=O)NC(C(C)O)C(=O)NC(=C(C)OC)c2nc(cs2)C(=O)NC2c4nc(cs4)C(=O)NC(COC(=O)c4c5c6c(cccc6n4O)COC(=O)C(OC4CC(C)(O)C(N(C)C)C(C)O4)C2OC5)c2nc-3cs2)n1)C(N)=O (centres unmarked) | Streptococcus pneumoniae |  | ATCC 49619, immunocompromised mice, lung infection | 24 h, three times daily | colony counts | ED50 | 4.16 mg/kg
Cc1ncsc1-c1ccc(C(C)NC(=O)C2CC(O)CN2C(=O)C(NC(=O)CCCCCCCCCCN2CCCC(Nc3ncc(Cl)c(Nc4ccccc4S(=O)(=O)C(C)C)n3)C2)C(C)(C)C)cc1 (centres unmarked) | 22Rv1 | RNA-seq, measured: RAD52 mRNA |  | concentration not given | relative to: DMSO | log2 fold change | -1.84
Cc1c(C)c2cccnc2c2ncccc12.O=[N+]([O-])[O-].O=c1c(C=NN=C([S-])Nc2ccccc2)coc2ccccc12.[Cu+2] | supercoiled pUC19 DNA | oxidative DNA cleavage |  | concentration not given, DMSO 10%, with: ascorbic acid |  | nicked circular DNA | 100%
Nc1ncc(-c2cc(-c3cnn(CC(F)(F)F)c3)ncc2F)nc1C(=O)NC1CNCC(F)C1 (centres unmarked) | NEK6 | KINOMEscan |  | 1 µM | relative to: DMSO control | remaining binding | 93%
C=CC(=O)N1[C@@H](c2ccc3c(c2)OCO3)c2[nH]c3ccccc3c2C[C@H]1C(=O)N1CCN(C)CC1 | human cyclin E1 N112C-3xFLAG:CDK2 | co-IP with TMT proteomics, measured: HNRNPK |  | concentration not given, P61978 | relative to: wild type DMSO | relative co-enrichment | 121%
Nc1nc(-c2ccccc2)nc2[nH]nc(Nc3c(F)cccc3F)c12 | rhinovirus B42 | viral cytopathic effect | HeLa |  |  | IC50 | 480 nM
COc1ccc(C(=O)CCc2cc(C(CCc3ccc(O)cc3OC)c3ccc(O)cc3)c(O)cc2OC)cc1 (racemic) |  |  | human blood | 3 µM, with: A23187 |  | 4-HDHA level | 38 ± 10 pg/mL
CC(=O)[O-].O.[Cu+2].[O-]c1ccc(Br)cc1C=NCCN1CCOCC1 |  | nitric oxide scavenging |  | 80 µM |  | inhibition | 22.6%
Cc1cccc(Nc2n[nH]c3nc(-c4ccccc4)nc(N)c23)c1 | rhinovirus B42 | viral cytopathic effect | HeLa |  |  | IC50 | 160 nM
Cc1ncsc1-c1ccc(CNC(=O)[C@@H]2C[C@H](O)CN2C(=O)[C@@H](NC(=O)CN2CCN(C3CN(CCNC(=O)C[C@@H]4N=C(c5ccc(Cl)cc5)c5c(sc(C)c5C)-n5c(C)nnc54)C3)CC2)C(C)(C)C)cc1 | Spodoptera frugiperda | degrader, targeted LC-MS, measured: BRD3 | Sf9 | 0.1 µM |  | protein level | 178% and 162% and 174%
C=CC(=O)Nc1cccc(Cn2ncc3cnc(Nc4cnn(CCOC)c4)nc32)c1 | human ABL1-phosphorylated | KINOMEscan |  | 100 nM | relative to: control | binding | 9.3%
N=C(NCC[C@H](NC(=O)c1noc(-c2cc(F)ccc2F)n1)c1nc2ccccc2[nH]1)c1ccc([N+](=O)[O-])o1 | STING pathway | inhibitor, RT-qPCR | mouse iBMDM | concentration not given, 2 h, with: diABZI 500 nM |  | IL6 mRNA level | inhibited
Cc1ccc(Nc2n[nH]c3nc(-c4ccncc4)nc(N)c23)cc1 | rhinovirus B42 | viral cytopathic effect | HeLa |  |  | IC50 | 70 nM
CC(C)(C)NCC(SS(=O)(=O)O)c1ccccc1 (centres unmarked) | Schistosoma mansoni |  | infected mice | 100 mg/kg single, day 42, perfusion day 56 | relative to: vehicle | male worm burden reduction | 51%
Cc1ccc(Nc2n[nH]c3nc(-c4cccc(F)c4)nc(N)c23)cc1 | rhinovirus B42 | viral cytopathic effect | HeLa |  |  | IC50 | 80 nM
COC1CN([C@H]2CC[C@H]([C@@]3(C)Oc4c(Cl)cc(C(=O)NCc5c(SC)cc(C)[nH]c5=O)c(C)c4O3)CC2)C1 |  | RNA-seq, measured: FNBP1L mouse homolog | mouse, HT-1376 xenograft, whole blood | dose not given | relative to: vehicle | log2 fold change | 2.62

Excerpt of the above:
SMILES | target or system | assay | system | setting | scale | quantity | result
CNS(=O)(=O)Nc1nccc(Cc2c(C)c3ccc(Oc4ncccc4F)cc3oc2=O)c1F | HEC-265 | cell viability, CellTiter-Glo |  | 7 days |  | IC50 | > 1000 nM
Cc1ncsc1-c1ccc(C(C)NC(=O)C2CC(O)CN2C(=O)C(NC(=O)CCCCCCCCCCN2CCCC(Nc3ncc(Cl)c(Nc4ccccc4S(=O)(=O)C(C)C)n3)C2)C(C)(C)C)cc1 (centres unmarked) | 22Rv1 | RNA-seq, measured: RAD52 mRNA |  | concentration not given | relative to: DMSO | log2 fold change | -1.84
CN1CCCNC(=O)c2cccc(c2)C(=O)NCCCN(C)CCCNc2cccc3c2C(=O)c2cccc(c2C3=O)NCCC1 | SAS | RNA-Seq, measured: FAM86C1 mRNA |  | 1 µM, 6 h | relative to: untreated cells | log2 fold change | 1.84
